Published values gathered from unrelated publications.
Each numbered part is a random draw from the data of one study; scales do not carry over between parts.

Set 1 — technique: universal PBM; molecule type: double-stranded DNA, one strand shown; sample: in vitro; concentration: not given; reading: higher = stronger binding
Target: Sal-like protein 4, full length isoform B (SALL4, Homo sapiens, UniProt Q9UJQ4-2, residues 1-616)
Setting: 8-mer, flanks averaged, mean of replicates
Oligonucleotide	E-score
CCAGGAGG	-0.288
ACGTCAGG	-0.117
AAAACGAG	0.0278
CGTCGCAA	-0.0931
ACATTCGT	0.203
AACTATGT	0.136
AGGGATCC	-0.324
AGCTCGAA	-0.189
GAGGCGGC	-0.265
CTAGCCAA	0.0382
TTACCCAA	0.065
CGTACACA	0.0648
TCTAGGAA	0.103
ATAACCGG	0.158
CACAGCTC	-0.161
GACTAGAC	-0.00891
ATGCGAGC	-0.163
AATGAAAA	0.336
AATTTACC	0.196
ATTTGAGA	0.186
ACACTAGG	-0.0303
CGTCAGGA	-0.0809
CCAGTAGG	-0.222
GCGTCCTA	-0.244
ATGCTGTC	0.0145

Set 2 — technique: RNA Bind-n-Seq; molecule type: RNA; sample: in vitro; concentration: 365 nM; reference: no-protein control; reading: higher = stronger binding
Target: RNA binding protein fox-1 homolog 2, RRM domain, GST-SBP tag (RBFOX2, Homo sapiens, UniProt O43251-10, residues 100-194)
Setting: natural RNA segment, single round, ends assumed
Constant ends, left off below: GGGAGUUCUACAGUCCGACGAUC … UGGAAUUCUCGGGUGCCAA
Target sequence (chain): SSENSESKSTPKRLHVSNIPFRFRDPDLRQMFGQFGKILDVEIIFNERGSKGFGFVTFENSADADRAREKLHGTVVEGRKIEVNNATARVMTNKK
Oligonucleotide	RBNS enrichment (R)
GCAACCCUCGGCUCUUGCCAAGGCACCACAGAAUGCACUUGCUCAUGCCCUGUGCCUCUUGAGCAGAAAAGAGCACUGACAACUGGGACACCUGGCUCUGUCUUCCUACA	0.535
GAGACACGAGAAGGAUAGCCUGACAUCAGAUGACAGACUGGAGGACUGUAGCACAUCUCUGGGCGUUUCCCUACCCAGAGAAGAGCCCCCCCCUUUGAUACAAAUCGGUU	0.356
GUAUUUUUAUAACUAAACAGAGGAAGUCUUCAGAAGACCUCGCUUUAAAACAAAUUUGUGCAAACACUGCUAGAGUCAUUUUGAAGCUCAAGCAUUUUCACUUUGUUUCU	0.434
GGGACGCUGGCCGCAGGGAGGAAGGAACAUCUCGGGAGGGCCCUCUGUUCCUCUCCCACGGCAGAUGCCCUCCUCUGUAUGCAAAUCAGCACAGCCUUUAUUGAGCUUUA	0.57
UAUAUAAUGUUUGUGUCAUGUAUAUGCCUAAAUUUUAAUUAUCUAUAAAUAAAACAUCUGACAUAAAGUGUAGGCUGAGCUUUCUUAACCAGUACAACCAAAAAAUCAAU	0.582
CUAUCACUUGAGAACCUCCUCAGCAAAGAUGCCAGAAAACAUUCAAUCAAGUUGGCAAAUGACACAGGGAGCUGGCCCUCUGACCAUCUUCCUGGCAAACCUGGACUGGA	0.221
ACGCCUCACAAUCAUGGUGGAAGGCAAGGAGGAGCAAAUCAUGUCUUAUACAUGGAUGGCAGCAGGCAAAGAGAGAACUUGUGCAGGGGAACUCUUUAUAAAACCGUCCG	0.49
UUACAAAUUAAUUGACUUUGAUAGUUAAAAGAUUAUGAGGUAACCCAUCUGCAAUUUGCCUGUGGGAGAAGCAUCCUUUAGUUCAUCUUAAGGAAGUGCUUUAUCAGCUA	0.21
GCUCUGUCUGUCCAAAGACGCUCCGGUCGAGGUCCCGCCUGCCCUGGGUGGAUACUUGAACCCCAGACGCCCCUCUGUGCUGCUGUGUCCGGAGGCGGCCUUCCCAUCUG	0.24
UUUGUGCUAAAACAUGGAAAAUUGUCACUGUGUUGAUGAGGUUUCCCCCAUUCUGCUGCCUUUGGGACACUGUUUUCGUUAAACUUGGUCUUGGCUGCAUUCUUUUUUUU	0.666
GGUAUUUUAUUCUCUUUGAAGCAAUUGUGAAUGGGAGUUCACUCAUGAUUUGGCUCUCUGUUUGUCUGUUGUUGGUGUAUAAGAAUGCUUGUGAUUUUUGUACAUUGAUU	0.944
UAACCCACUUCUCUCCCAUCUUCUCCGAGCCAUGACUCAAGAAGAAAAGGGUGCUCGGACUCUCUUAUACACAUGUGCUUUGUGUAAAUAAAUGUUUACAAUUUUAUAUU	0.986

Set 3 — technique: protein binding microarray; molecule type: double-stranded DNA, one strand shown; sample: in vitro; concentration: not given; reference: not given; reading: higher = stronger binding
Target: Histone acetyltransferase KAT6A, winged helix 2, GST fusion (KAT6A, Homo sapiens, UniProt Q92794, residues 85-181)
Setting: 8-mer, flanks averaged, mean of 2 arrays, mostly near background
Construct (chain): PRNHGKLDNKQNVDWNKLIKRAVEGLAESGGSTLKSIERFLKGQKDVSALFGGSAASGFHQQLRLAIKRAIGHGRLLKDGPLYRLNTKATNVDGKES
Oligonucleotide	E-score
CCAAGAAC	0.19
TCGTTAAA	-0.0441
ACCAGGCC	0.165
GTCGCGAC	0.284
AAGCAGCG	0.159
TCTAGACA	-0.0193
CTACTGTC	-0.102
AATTGTTG	0.0366
CAGGCTAA	-0.0607
AACTGGGA	-0.00064
CCTTCCCG	-0.0504
ATCCTCAT	-0.205
GAGTACAA	0.12
ACCTGGGA	-0.146
AAACGTAT	-0.139
AACCAACA	0.167
ACAGCAAC	0.137

Set 4 — technique: protein-binding microarray; molecule type: double-stranded DNA, one strand shown; sample: in vitro; concentration: 2540 nM top; setting: 60-bp whole probe; added: salmon DNA 0.4 mg/ml; reference: random background probes; reading: higher = stronger binding; constant ends, left off below: GCCTAGCAC … GTCTTGATTCGCTTGACGCTGCTG
Target: Interferon regulatory factor 3, full length, phosphomimetic (IRF3, Homo sapiens, UniProt Q14653, residues 1-427, S386D/S396D/S398D/S402D/T404D/S405D)
Residues (chain): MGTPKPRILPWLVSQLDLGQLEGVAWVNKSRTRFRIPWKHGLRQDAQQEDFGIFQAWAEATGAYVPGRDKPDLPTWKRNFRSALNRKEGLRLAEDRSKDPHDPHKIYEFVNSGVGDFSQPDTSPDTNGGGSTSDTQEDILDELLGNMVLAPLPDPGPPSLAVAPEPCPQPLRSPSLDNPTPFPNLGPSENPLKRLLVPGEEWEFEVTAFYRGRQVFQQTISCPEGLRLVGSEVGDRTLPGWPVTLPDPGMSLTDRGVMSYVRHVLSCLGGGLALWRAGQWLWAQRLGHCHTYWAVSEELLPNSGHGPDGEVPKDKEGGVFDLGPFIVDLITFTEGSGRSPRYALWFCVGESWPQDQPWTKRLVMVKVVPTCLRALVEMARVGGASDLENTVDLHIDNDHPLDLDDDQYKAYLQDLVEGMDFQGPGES
Oligonucleotide	fitted relative affinity
TCAGCTTCCTCTCTGCCACTGTGCTAG	0.61 z-score
TCAGGTTTCGGACTGGGTTAGTGCTAG	4.17 z-score
TTAGGTTTCGACTTGCGGTTAGTGCTA	2.87 z-score
GACGAACTGTGTTTCGAGACGTGCTAG	0.886 z-score
GACGTTCTCGGTATCGGGACGTGCTAG	1.78 z-score
GACGTACTGGGGTATCGGGACGTGCTA	-0.291 z-score
GACGGTTCCGGTTTTGGGACGTGCTAG	4.36 z-score
GACGGTTTCGGACTGTGGACGTGCTAG	4.74 z-score
TCATAATTCCTGCCTGAGACTGTGCTA	0.255 z-score
TTAGGTTTCGCTTTCGGTTAGTGCTAG	9.44 z-score
TCAGTTTTCTTTTCCATACTGTGCTAG	7.05 z-score
TCAACTCAGCACTTTGGCACTGTGCTA	-0.293 z-score
GACGATCTTAGACTGGAGACGTGCTAG	0.221 z-score
TTGGATTTCAGTATCGATTAGTGCTAG	2.03 z-score
TTAGGTATCGGACCGGGTTAGTGCTAG	0.672 z-score
TTTGGTATCGGGACTGGGTTAGTGCTA	1.73 z-score
GACGGTTTCAGACTGGGGACGTGCTAG	2.58 z-score
TTAGGTTTCGACCATCGGTTAGTGCTA	1.3 z-score
TTAGGACTGCTTCTTCTTTAGTGCTAG	-0.15 z-score
TCACTCCTCCAGGTTCTCACTGTGCTA	0.0279 z-score
TCATTTTTACTTTCTGAACTGTGCTAG	4.16 z-score
GACGGACTGTTACTGCTGACGTGCTAG	-0.366 z-score
TCTCCTCCAGGTTCTCTGACAGTGCTA	0.131 z-score
GACGGTCTCCTGTTCCTGACGTGCTAG	0.962 z-score
GACGCACTGAGTTTCGAGACGTGCTAG	0.968 z-score

Set 5 — technique: RNAcompete; molecule type: RNA; sample: in vitro; concentration: 20 nM; setting: 7-mer, probes averaged, single round; reference: mean of 7-mers; reading: higher = stronger binding
Target: PABPC1L2, full length, GST fusion (mouse, UniProt A0ABA7IW68)
Target sequence (chain): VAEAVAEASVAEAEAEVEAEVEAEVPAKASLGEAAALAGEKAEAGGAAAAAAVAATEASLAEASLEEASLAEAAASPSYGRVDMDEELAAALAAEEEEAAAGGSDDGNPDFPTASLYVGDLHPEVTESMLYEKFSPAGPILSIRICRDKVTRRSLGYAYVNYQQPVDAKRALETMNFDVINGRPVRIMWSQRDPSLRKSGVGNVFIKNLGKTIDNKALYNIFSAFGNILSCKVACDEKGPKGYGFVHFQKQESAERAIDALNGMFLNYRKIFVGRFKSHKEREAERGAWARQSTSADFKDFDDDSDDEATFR
Oligonucleotide	7-mer Z-score
AGGUUCA	-0.204
UAUUUUU	-0.364
GUCGGCG	-0.179
ACUCUCA	-0.34
CUGAGCA	-0.0101
ACGCGUC	-0.157
AGUCGUC	-0.454
GGAAAAC	1.67
AAACACC	1.78
CGAAAAC	2.62
CCUCAGG	-0.222
UAUGUGA	-0.206
GGUUUUA	-0.197
GGGAUCG	0.22
CUGCUGA	-0.17
AAGUGUG	0.249
GCAACGC	-0.0047
UUACUUU	-0.24
GUCGACC	-0.0573
UAGUAUC	-0.211
GUCAAAG	-0.175
CGAGUGG	-0.0428
UGUACCU	-0.329
GCCCUGG	-0.287
GUUGUGG	-0.222

Some of these lines once more (set 2):
Oligonucleotide	RBNS enrichment (R)
GCAACCCUCGGCUCUUGCCAAGGCACCACAGAAUGCACUUGCUCAUGCCCUGUGCCUCUUGAGCAGAAAAGAGCACUGACAACUGGGACACCUGGCUCUGUCUUCCUACA	0.535
GAGACACGAGAAGGAUAGCCUGACAUCAGAUGACAGACUGGAGGACUGUAGCACAUCUCUGGGCGUUUCCCUACCCAGAGAAGAGCCCCCCCCUUUGAUACAAAUCGGUU	0.356
GUAUUUUUAUAACUAAACAGAGGAAGUCUUCAGAAGACCUCGCUUUAAAACAAAUUUGUGCAAACACUGCUAGAGUCAUUUUGAAGCUCAAGCAUUUUCACUUUGUUUCU	0.434
GGGACGCUGGCCGCAGGGAGGAAGGAACAUCUCGGGAGGGCCCUCUGUUCCUCUCCCACGGCAGAUGCCCUCCUCUGUAUGCAAAUCAGCACAGCCUUUAUUGAGCUUUA	0.57
UAUAUAAUGUUUGUGUCAUGUAUAUGCCUAAAUUUUAAUUAUCUAUAAAUAAAACAUCUGACAUAAAGUGUAGGCUGAGCUUUCUUAACCAGUACAACCAAAAAAUCAAU	0.582
CUAUCACUUGAGAACCUCCUCAGCAAAGAUGCCAGAAAACAUUCAAUCAAGUUGGCAAAUGACACAGGGAGCUGGCCCUCUGACCAUCUUCCUGGCAAACCUGGACUGGA	0.221
ACGCCUCACAAUCAUGGUGGAAGGCAAGGAGGAGCAAAUCAUGUCUUAUACAUGGAUGGCAGCAGGCAAAGAGAGAACUUGUGCAGGGGAACUCUUUAUAAAACCGUCCG	0.49
UUACAAAUUAAUUGACUUUGAUAGUUAAAAGAUUAUGAGGUAACCCAUCUGCAAUUUGCCUGUGGGAGAAGCAUCCUUUAGUUCAUCUUAAGGAAGUGCUUUAUCAGCUA	0.21
GCUCUGUCUGUCCAAAGACGCUCCGGUCGAGGUCCCGCCUGCCCUGGGUGGAUACUUGAACCCCAGACGCCCCUCUGUGCUGCUGUGUCCGGAGGCGGCCUUCCCAUCUG	0.24
UUUGUGCUAAAACAUGGAAAAUUGUCACUGUGUUGAUGAGGUUUCCCCCAUUCUGCUGCCUUUGGGACACUGUUUUCGUUAAACUUGGUCUUGGCUGCAUUCUUUUUUUU	0.666
GGUAUUUUAUUCUCUUUGAAGCAAUUGUGAAUGGGAGUUCACUCAUGAUUUGGCUCUCUGUUUGUCUGUUGUUGGUGUAUAAGAAUGCUUGUGAUUUUUGUACAUUGAUU	0.944
UAACCCACUUCUCUCCCAUCUUCUCCGAGCCAUGACUCAAGAAGAAAAGGGUGCUCGGACUCUCUUAUACACAUGUGCUUUGUGUAAAUAAAUGUUUACAAUUUUAUAUU	0.986
